Measured values collected from several papers.
Each numbered part is a random draw from the data of one study; scales do not carry over between parts.

Block 1 — method: aptamer microarray, sandwich; form: DNA with 2'F-ANA; matrix: in vitro; tested at: 200 nM; added: Cy3 exosite-II aptamer, 400 nM; direction: higher = stronger binding; endpoint: mean fluorescence intensity; strand: GGTTGGTGTGGTTGG
Target: Prothrombin, mature alpha-thrombin (F2, Homo sapiens, UniProt P00734)
Setting: whole 15-mer aptamer, many near background
Modification = 2'F-ANA at 3 5 6 8 10 11 12 13 14 15; value = 68 a.u.
Modification = 2'F-ANA at 4 6 7 9 13 14; value = 67.2 a.u.
Modification = 2'F-ANA at 2 4 5 6 7 9 10 11 15; value = 50.2 a.u.
Modification = 2'F-ANA at 2 3 5 8 10 12 15; value = 66.3 a.u.
Modification = 2'F-ANA at 3 4 6 7 9 11 12 14 15; value = 273 a.u.
Modification = 2'F-ANA at 5 7 10 15; value = 46.1 a.u.
Modification = 2'F-ANA at 5 8 10 11 12 14; value = 45.3 a.u.
Modification = 2'F-ANA at 6 7 8 10 12 13; value = 174 a.u.
Modification = 2'F-ANA at 1 4 7 9 13 15; value = 75.2 a.u.
Modification = 2'F-ANA at 2 3 5 6 7 10 13 15; value = 47.3 a.u.
Modification = 2'F-ANA at 1 2 3 4 6 8 10 12 14; value = 61.2 a.u.
Modification = 2'F-ANA at 1 2 8 9 10 12; value = 69.4 a.u.
Modification = 2'F-ANA at 1 2 5 7 11 14; value = 42.6 a.u.
Modification = 2'F-ANA at 4 5 7 8 10 11 13 15; value = 44.9 a.u.
Modification = 2'F-ANA at 1 3 6 7 12 13; value = 393 a.u.
Modification = 2'F-ANA at 2 3 9 14; value = 405 a.u.
Modification = 2'F-ANA at 4 5 7 10 12 15; value = 49.6 a.u.
Modification = 2'F-ANA at 1 2 3 5 6 8 10 12 13 14 15; value = 47.9 a.u.
Modification = 2'F-ANA at 1 2 3 4 7 11 12; value = 321 a.u.

Block 2 — method: RNA Bind-n-Seq; form: RNA; matrix: in vitro; tested at: 200 nM; setting: whole 134-nt RNA, ends assumed; added: 150 mM LiCl; reference: input library; direction: higher = stronger binding; endpoint: log2 enrichment; each molecule: 7-deaza-guanosine replaces G
Target: Ras GTPase-activating protein-binding protein 1, full length (G3BP1, Homo sapiens, UniProt Q13283)
UniProt Q13283, sequence (whole entry, looked up): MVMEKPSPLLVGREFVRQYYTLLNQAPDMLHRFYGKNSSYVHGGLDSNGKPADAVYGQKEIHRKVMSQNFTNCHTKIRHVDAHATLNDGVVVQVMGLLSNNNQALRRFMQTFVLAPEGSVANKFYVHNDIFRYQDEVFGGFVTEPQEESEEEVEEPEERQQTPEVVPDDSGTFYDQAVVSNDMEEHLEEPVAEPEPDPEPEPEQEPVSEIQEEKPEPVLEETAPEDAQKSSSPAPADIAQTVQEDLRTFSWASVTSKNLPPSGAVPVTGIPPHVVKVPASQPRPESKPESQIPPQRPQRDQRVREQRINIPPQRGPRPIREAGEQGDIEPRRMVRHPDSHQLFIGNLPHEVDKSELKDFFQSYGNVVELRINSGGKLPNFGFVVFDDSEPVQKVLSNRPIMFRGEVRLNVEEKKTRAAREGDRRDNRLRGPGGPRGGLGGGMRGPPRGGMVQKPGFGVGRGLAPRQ
Shared flanks, not repeated: GGGAGUUCUACAGUCCGACGAUC … UGGAAUUCUCGGGUGUCAAGG
Strand = GUCCUGUGCUACACAUCGUAUGUACCGAAUCGGGAAAAAGGGAAAAAGGGGAAAAAGGGAAAGUAUUAUGUUACGCCGUUCGGAUCUGCA; value = -0.0908
Strand = CCUCAAGUCCUGUGCUACACAUCGUAUGUACCGAAUCGGGUUGGGUUGGUUGGAAAGUAUUAUGUUACGCCGUUCGGAUCUGCACUUCCA; value = 0.29
Strand = GAUGAUUACUAUGGUUAUGAUUAUCACGACUAUCGUGGAGGCUAUGAAGAUCCCUACUACGGCUAUGAUGAUGGCUAUGCAGUAAGAGGA; value = -1.48
Strand = UGACUUUAGGAGAUACCUUAACUCGACGUUCCAUUAGCCAGCAGAAGUCCGGAGUUUCCAUUACCAUUGAUGACCCAGUCCGAACUGCCC; value = -0.426
Strand = ACCAUGCAGGUGGGCAUCUUUGGGAAGUGGGGCAAGGGGGGGAUAGGGAGGUGGGUAACACUUUGGGAACAGGUGGUCCCAGGUCGUUUC; value = 0.386
Strand = GUCCUGUGCUACACAUCGUAUGUACCGAAUCGGGAAAAAAAGGGAGGGAAAAAAAGGGAAAGUAUUAUGUUACGCCGUUCGGAUCUGCAC; value = 0.289
Strand = AAGUCCUGUGCUACACAUCGUAUGUACCGAAUCGGUUUUGGGUUUUGGGUUUUGGGGAAAGUAUUAUGUUACGCCGUUCGGAUCUGCACU; value = 0.284
Strand = CAAGUCCUGUGCUACACAUCGUAUGUACCGAAUCGGGAGGGAAAAAAAGGGAGGGAAAGUAUUAUGUUACGCCGUUCGGAUCUGCACUUC; value = 0.409
Strand = GUCCUGUGCUACACAUCGUAUGUACCGAAUCGGGGCCCCCGGCCCCCGGGCCCCCGGGGAAAGUAUUAUGUUACGCCGUUCGGAUCUGCA; value = -1.78
Strand = UCCUGUGCUACACAUCGUAUGUACCGAAUCGGGGAAAAAAAGGGGUUUUUGGGGAGGGGAAAGUAUUAUGUUACGCCGUUCGGAUCUGCA; value = 0.45
Strand = CCUCAAGUCCUGUGCUACACAUCGUAUGUACCGAAUCGGCCGGGGCCGGCCGGAAAGUAUUAUGUUACGCCGUUCGGAUCUGCACUUCCA; value = 0.572

Block 3 — method: RNA Bind-n-Seq; form: RNA; matrix: in vitro; tested at: not given; reference: input RNA pool; direction: higher = stronger binding; endpoint: bound/input enrichment
Target: RING finger protein unkempt homolog, zinc fingers 1-6, GST-SBP tag (UNK, Homo sapiens, UniProt Q9C0B0, residues 30-357)
Setting: RNA with constant flanks, human-mouse chimeric sites, ends assumed
Shared flanks, not repeated: GGGAGUUCUACAGUCCGACGAUC … CAACAGAGGAUUGAGCAUCA
Construct (chain): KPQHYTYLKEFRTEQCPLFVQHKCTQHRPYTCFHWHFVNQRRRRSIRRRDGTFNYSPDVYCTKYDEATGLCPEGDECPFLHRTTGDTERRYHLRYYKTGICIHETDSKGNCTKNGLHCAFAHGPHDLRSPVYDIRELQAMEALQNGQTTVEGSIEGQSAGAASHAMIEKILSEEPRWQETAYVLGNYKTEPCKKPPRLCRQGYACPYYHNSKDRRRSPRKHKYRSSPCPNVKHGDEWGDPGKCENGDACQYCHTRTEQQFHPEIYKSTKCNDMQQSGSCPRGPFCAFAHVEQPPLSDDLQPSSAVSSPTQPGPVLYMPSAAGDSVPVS
Strand = ACCUCCCCCUCCCGCCUCACCCCACCCCCGCUUUUUGGAAAGUUUUUGGCGUUUCUUUUUUUUAGAAAUACAAAGUGAUUACAGUUUCCCCCGCAAGGGUCUAUCGAUUCACCCUUCGGA; value = 1.32 ratio
Strand = UUGUCGAAGACUCAACGAAAGACUCCAACGGUUAUUCAUAAACAUUAUCAAAUUCAUCGGAUUCGACAUUUUUAUAUGAGAAAAGUCAAAUUUACUCAACAGAAUUACCAUGACAGACUG; value = 0.161 ratio
Strand = UCAACAGACAACAUCAAAUACCAGCCUAAAGGGGGGCAGGUACAAAUUGUUACCAAGAAGAUAGACUUAAGCCAUGUGACAUCCAAAUGUGGCUCUCUAAAGAACAUCCGCCACAGGCCA; value = 0.327 ratio
Strand = GGGACUGAUUCAUUCCAAGGACAGGCCACCCCAUUUGAUGCCUGGACUGAUGACAGUAUGGAAGGGCCUAGUCAAAAUUUUGAAGCUGAGUCAAUUCAGGAUGCCAUGAGUAUGGAAGAG; value = 0.429 ratio
Strand = CCAAUUGUGGAGCAGUACUUGAAGACAAAGAAAAAUUCUAAUAAUUUAAUCAUCAAGUACAUUAGCUGCCGGCUGGUGACAUUUGUGAUUAUACUGUUAGCGUGUAUCUACCUGGGCUAU; value = 0.145 ratio
Strand = UAAGUCCUGUGCCAGCACUUCGCUCAUAAAGUUUUAAAUUCUGGACCAAUUGUGUUUGUUUCCUGAUUAUUGUAUCCAAUACUUUGCCUAGUAUGUAACUCAUGCUUACUGAUAAUAAAA; value = 0.694 ratio
Strand = GAGCGUCUUGCCCGCACUGGGAUCAUCGUGACCACUAGUGAGGCUGUCCUCCUACAGCUGGUGGCUGACAAAGACCAUCCAAAAUUCAAGGAAAUUCAGAAUCUAAUUAAGGCGAGUGCC; value = 0.202 ratio
Strand = GCAUAUGGUUAUCGAGGAAAGGACUGUAGAGCGAAUGUAUACCUGCUUCCCACAGGGGAGAUAGUUUAUUUCAUUGCCUCAGUGGUAGUCCUGUUUAAUUAUGAGGAGAGGACUCAGCGA; value = 0.856 ratio
Strand = GCUCUUGGGAAUGUAAUCAGCGCCUUGGGAGACAAGAGCAAGAGAGCCACCCAUGUCCCCUAUAGAGACUCUAAGCUGACAAGACUCUUGCAGGAUUCCCUUGGGGGUAACAGCCAAACC; value = 0.132 ratio
Strand = GGACAUCUGUCAAAUUGUUAUGUUCCUGUGAAACAAGUGAGCACUUUGAUACACUUCAUCUGCUUGUACAUCUGUAUGAUAGAGAAAUGUAAAUAUGUUAAUCCAAGCAAUGUGUCACUU; value = 0.237 ratio
Strand = UGACAAGGGCACUGCAGAGCCAUGCCUUUCCUUGACAUACAGAAAAAGCUGGGCAUCAGCCUGGACCGAUGGUUGACGUUCCUAAGCGCAGAACAGCCCUACAAGAUCGCCGCUCGGUGC; value = 0.068 ratio

Block 4 — method: universal PBM; form: double-stranded DNA, one strand shown; matrix: in vitro; tested at: not given; direction: higher = stronger binding; endpoint: E-score
Target: Sal-like protein 4, full length isoform B (SALL4, Homo sapiens, UniProt Q9UJQ4-2, residues 1-616)
Setting: 8-mer, flanks averaged, mean of replicates
Target sequence (chain): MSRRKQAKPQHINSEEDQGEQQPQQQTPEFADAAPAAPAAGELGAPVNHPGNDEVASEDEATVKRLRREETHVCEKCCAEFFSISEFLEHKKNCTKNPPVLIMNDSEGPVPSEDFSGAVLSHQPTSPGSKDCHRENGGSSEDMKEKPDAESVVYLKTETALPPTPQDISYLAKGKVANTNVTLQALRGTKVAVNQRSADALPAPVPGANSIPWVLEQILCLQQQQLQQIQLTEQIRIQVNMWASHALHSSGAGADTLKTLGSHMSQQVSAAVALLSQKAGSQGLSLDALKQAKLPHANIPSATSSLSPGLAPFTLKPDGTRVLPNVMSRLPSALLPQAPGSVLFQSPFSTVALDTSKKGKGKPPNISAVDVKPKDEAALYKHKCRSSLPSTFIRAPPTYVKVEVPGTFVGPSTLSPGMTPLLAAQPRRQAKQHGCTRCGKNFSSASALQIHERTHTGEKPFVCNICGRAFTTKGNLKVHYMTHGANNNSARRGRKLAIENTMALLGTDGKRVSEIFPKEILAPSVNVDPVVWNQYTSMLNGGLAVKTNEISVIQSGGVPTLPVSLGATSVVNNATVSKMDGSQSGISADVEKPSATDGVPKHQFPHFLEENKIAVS
Strand = AGCTTTGG; value = -0.127
Strand = CGAACTAC; value = -0.0714
Strand = AGTGCGCA; value = -0.143
Strand = ACTTGAAT; value = 0.264
Strand = CACGTATC; value = 0.037
Strand = AGAAGAAA; value = 0.111
Strand = CCCTCGTC; value = -0.29
Strand = CCAACCGA; value = -0.131
Strand = ACCGCGAA; value = -0.195
Strand = GCTCGGAA; value = -0.242
Strand = CAAGCCCG; value = -0.31
Strand = CCTCCCGC; value = -0.274
Strand = AATCAAGG; value = 0.103
Strand = AGCATTAA; value = 0.208
Strand = AATCTCGT; value = 0.0348
Strand = CGTAAGTC; value = 0.0424
Strand = TACGGATA; value = 0.217
Strand = GTCTCTTA; value = 0.0416

Block 5 — method: protein binding microarray; form: double-stranded DNA, one strand shown; matrix: in vitro; tested at: not given; reference: not given; direction: higher = stronger binding; endpoint: E-score
Target: Histone acetyltransferase KAT6A, both winged helices, GST fusion (KAT6A, Homo sapiens, UniProt Q92794, residues 1-181)
Setting: 8-mer, flanks averaged, mean of 2 arrays, mostly near background
Construct (chain): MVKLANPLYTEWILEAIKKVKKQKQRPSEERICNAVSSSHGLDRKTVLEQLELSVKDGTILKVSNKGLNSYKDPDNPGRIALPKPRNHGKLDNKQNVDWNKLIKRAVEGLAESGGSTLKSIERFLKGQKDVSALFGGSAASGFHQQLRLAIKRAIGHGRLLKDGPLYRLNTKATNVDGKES
Strand = ATTACCCC; value = -0.0307
Strand = GAAGCGGC; value = 0.275
Strand = CCGGAACA; value = 0.15
Strand = CCTACATA; value = -0.0902
Strand = GTAGAAGA; value = -0.0945
Strand = ATGCGTGG; value = 0.0335
Strand = CACGCCTC; value = -0.0179
Strand = GAACCGGC; value = 0.269
Strand = TACCTGAA; value = -0.0572
Strand = CTGACTAC; value = -0.0196
Strand = GAGCCCAC; value = -0.0933
Strand = ACCAACGG; value = 0.138
Strand = ACAGATAC; value = -0.015
Strand = ACACGGCC; value = 0.23
Strand = AAAGGAAG; value = -0.0202
Strand = AGCAATAC; value = -0.194
Strand = CAACGACC; value = -0.107
Strand = CACCCAGA; value = -0.0469
Strand = CCAGCCAG; value = -0.255
Strand = AGTGCACT; value = -0.164
Strand = GGACATCC; value = 0.0729
Strand = CCATTACA; value = -0.0632
Strand = GGATATGA; value = 0.0153
Strand = AGCCCGTG; value = 0.196
Strand = CTCTACCA; value = -0.184
